# Assay results gathered from unrelated publications.
# Protein sequences, listed by entry. Tags and fused reporters are not part of them. Residues count along the entry.
# UniProt P04150, whole entry: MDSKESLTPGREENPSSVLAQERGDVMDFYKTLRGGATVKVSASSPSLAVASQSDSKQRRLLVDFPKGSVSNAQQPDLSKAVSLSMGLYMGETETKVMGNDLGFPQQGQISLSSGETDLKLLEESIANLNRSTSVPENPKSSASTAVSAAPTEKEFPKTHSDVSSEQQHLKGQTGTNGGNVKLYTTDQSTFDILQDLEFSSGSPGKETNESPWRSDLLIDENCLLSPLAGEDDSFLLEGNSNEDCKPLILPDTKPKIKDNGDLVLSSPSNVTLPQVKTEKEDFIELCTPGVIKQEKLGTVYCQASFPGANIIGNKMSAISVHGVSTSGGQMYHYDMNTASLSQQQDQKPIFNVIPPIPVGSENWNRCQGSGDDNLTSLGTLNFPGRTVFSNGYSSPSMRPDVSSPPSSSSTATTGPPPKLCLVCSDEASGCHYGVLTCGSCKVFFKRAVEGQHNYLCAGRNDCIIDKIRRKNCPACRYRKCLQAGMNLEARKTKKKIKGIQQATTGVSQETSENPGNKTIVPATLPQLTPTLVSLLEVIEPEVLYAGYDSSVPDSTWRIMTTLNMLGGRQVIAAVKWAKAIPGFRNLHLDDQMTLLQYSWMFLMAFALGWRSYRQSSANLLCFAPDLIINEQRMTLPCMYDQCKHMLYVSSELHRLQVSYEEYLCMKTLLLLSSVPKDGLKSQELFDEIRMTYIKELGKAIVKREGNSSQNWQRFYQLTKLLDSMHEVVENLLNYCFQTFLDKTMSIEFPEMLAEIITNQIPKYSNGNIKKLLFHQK
# UniProt Q9NRW4, whole entry: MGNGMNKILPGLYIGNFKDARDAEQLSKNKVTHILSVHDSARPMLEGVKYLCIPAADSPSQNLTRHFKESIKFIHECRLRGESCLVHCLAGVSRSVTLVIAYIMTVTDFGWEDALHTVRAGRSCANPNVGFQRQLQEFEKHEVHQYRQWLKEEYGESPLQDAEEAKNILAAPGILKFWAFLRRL
# UniProt Q16828, whole entry: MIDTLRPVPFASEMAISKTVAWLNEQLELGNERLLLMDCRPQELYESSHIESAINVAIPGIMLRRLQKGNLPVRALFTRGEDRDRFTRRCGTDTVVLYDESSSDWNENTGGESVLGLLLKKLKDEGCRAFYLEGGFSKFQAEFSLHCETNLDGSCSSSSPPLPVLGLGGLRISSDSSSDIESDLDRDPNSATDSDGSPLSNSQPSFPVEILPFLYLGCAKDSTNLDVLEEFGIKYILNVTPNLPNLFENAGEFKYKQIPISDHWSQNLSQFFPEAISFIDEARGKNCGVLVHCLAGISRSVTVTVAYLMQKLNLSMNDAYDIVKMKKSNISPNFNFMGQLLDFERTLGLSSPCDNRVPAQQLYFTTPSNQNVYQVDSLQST
# UniProt Q8K3Y3, whole entry, looked up: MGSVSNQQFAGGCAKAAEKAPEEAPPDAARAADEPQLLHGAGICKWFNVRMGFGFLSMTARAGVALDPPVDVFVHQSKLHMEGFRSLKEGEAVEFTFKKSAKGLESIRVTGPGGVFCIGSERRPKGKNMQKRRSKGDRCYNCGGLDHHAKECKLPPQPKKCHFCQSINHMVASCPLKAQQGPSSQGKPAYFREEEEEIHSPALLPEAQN
# UniProt Q9Y2R2, whole entry: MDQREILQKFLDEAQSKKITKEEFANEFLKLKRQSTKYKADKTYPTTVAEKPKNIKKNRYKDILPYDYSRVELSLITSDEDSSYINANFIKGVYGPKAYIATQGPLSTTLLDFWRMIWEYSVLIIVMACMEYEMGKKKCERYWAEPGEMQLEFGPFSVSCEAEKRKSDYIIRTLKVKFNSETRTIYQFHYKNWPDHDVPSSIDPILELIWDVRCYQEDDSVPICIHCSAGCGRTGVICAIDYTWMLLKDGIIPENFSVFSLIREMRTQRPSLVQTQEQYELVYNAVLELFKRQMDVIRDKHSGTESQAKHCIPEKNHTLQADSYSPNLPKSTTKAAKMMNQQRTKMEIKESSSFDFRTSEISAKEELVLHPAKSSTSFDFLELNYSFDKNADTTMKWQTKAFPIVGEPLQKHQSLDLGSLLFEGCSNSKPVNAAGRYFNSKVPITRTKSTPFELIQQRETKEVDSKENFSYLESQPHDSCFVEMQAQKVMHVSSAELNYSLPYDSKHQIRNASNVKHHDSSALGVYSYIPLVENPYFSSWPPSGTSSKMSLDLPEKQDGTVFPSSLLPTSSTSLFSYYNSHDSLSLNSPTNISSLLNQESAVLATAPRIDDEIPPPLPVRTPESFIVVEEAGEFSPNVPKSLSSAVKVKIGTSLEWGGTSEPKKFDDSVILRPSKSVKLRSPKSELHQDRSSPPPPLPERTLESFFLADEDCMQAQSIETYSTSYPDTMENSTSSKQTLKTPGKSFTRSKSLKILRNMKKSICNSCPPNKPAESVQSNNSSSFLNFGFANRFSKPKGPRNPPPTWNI
# UniProt Q5S007, whole entry: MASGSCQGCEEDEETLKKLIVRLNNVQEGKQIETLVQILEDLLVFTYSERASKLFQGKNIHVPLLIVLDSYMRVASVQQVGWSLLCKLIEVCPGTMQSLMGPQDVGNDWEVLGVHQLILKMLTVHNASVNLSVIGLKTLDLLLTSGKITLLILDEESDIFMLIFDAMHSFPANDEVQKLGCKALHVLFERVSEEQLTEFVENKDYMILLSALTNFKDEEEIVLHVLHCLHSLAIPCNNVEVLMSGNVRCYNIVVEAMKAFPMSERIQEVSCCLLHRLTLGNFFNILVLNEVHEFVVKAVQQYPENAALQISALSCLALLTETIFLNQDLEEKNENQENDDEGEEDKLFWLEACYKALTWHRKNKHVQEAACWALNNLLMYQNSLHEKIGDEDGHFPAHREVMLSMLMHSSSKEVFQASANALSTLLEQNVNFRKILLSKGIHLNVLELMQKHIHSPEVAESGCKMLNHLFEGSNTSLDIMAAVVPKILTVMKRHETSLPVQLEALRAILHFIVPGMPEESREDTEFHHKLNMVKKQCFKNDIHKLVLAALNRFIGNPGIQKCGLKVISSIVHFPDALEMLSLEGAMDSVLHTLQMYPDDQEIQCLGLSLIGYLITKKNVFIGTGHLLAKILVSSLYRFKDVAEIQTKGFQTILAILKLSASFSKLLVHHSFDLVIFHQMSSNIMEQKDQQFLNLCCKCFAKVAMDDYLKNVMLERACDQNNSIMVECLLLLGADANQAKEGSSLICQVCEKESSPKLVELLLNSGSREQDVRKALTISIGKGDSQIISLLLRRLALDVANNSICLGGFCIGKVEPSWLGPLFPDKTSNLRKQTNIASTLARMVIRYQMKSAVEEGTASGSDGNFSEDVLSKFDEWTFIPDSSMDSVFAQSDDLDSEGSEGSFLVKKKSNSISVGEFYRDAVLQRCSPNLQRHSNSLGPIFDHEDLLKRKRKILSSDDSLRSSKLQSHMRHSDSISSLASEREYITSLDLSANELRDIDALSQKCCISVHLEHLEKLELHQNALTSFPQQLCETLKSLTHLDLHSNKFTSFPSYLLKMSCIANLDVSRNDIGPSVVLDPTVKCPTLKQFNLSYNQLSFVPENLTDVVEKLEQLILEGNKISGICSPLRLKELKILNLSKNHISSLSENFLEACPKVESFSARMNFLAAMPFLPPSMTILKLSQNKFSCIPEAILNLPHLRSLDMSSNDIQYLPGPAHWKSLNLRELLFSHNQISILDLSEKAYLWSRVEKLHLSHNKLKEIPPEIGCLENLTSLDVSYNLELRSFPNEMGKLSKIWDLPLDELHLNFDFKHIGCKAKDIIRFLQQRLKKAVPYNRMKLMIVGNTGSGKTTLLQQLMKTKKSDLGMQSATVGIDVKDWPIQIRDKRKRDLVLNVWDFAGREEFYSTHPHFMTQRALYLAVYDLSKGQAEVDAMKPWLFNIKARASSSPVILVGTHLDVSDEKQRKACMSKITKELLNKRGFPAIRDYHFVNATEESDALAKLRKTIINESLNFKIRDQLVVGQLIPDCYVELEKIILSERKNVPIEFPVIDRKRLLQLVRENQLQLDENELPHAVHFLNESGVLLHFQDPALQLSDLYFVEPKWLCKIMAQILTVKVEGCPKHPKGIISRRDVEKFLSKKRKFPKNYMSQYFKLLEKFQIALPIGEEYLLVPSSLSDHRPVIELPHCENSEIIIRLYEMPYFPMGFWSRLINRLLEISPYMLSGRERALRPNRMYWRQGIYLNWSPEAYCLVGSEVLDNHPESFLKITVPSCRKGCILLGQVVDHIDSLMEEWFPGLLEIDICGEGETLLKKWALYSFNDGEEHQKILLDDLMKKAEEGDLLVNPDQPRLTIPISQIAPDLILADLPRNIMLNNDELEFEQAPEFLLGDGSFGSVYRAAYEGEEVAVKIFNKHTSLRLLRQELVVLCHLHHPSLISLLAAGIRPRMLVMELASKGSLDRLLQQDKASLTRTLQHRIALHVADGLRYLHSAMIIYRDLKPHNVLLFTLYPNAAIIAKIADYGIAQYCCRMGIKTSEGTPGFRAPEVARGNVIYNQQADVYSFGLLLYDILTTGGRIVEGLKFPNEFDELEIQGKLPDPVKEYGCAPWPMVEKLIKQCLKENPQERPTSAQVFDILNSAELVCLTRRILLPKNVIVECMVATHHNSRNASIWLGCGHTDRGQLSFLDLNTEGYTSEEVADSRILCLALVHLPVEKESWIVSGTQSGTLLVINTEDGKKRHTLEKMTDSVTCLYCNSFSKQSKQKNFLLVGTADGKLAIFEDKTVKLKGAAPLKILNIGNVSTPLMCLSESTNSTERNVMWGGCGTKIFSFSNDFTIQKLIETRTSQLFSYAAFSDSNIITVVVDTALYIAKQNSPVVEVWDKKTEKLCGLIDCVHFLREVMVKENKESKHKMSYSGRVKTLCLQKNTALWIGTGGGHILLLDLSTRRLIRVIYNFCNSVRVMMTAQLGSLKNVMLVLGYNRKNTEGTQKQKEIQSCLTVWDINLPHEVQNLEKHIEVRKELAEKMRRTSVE
# UniProt Q15256, 22-657 limits assumed: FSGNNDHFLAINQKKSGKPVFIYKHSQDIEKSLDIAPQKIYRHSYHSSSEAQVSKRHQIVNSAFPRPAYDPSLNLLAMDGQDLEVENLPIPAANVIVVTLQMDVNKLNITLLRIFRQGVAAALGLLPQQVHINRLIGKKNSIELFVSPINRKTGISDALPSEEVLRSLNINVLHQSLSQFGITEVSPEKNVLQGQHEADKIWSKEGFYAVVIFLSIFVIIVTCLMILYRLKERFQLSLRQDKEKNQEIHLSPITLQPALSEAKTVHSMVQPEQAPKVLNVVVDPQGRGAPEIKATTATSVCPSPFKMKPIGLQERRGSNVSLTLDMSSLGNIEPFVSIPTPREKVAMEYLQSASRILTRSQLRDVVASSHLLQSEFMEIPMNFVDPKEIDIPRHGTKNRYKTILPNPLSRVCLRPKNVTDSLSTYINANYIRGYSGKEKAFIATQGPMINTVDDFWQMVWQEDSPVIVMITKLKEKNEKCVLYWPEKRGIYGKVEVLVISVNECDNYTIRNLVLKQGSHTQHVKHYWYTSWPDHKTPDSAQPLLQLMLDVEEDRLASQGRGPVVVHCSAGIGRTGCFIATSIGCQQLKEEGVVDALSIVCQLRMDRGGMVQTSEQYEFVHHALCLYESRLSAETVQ
# UniProt P10636, whole entry, looked up: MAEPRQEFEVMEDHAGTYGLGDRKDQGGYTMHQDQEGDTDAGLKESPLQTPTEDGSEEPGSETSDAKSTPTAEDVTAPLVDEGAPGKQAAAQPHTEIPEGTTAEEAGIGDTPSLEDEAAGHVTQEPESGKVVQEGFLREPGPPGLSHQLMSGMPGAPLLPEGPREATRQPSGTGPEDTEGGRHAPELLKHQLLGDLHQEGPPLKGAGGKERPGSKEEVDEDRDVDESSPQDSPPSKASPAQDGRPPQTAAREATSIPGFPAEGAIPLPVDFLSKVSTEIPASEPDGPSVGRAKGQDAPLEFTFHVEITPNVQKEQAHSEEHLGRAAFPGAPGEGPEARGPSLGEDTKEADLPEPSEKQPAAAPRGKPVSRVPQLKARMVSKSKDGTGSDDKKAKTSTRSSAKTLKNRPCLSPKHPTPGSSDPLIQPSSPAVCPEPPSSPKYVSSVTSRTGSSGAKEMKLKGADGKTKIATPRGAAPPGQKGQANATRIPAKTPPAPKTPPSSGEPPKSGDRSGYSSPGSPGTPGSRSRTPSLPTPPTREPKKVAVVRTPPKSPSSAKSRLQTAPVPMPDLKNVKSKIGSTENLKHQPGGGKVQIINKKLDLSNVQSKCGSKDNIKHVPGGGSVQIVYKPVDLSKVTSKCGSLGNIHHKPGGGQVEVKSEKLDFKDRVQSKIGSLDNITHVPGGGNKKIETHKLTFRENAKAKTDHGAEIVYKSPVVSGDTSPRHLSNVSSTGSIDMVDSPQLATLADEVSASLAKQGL
# UniProt Q9NVS9, whole entry: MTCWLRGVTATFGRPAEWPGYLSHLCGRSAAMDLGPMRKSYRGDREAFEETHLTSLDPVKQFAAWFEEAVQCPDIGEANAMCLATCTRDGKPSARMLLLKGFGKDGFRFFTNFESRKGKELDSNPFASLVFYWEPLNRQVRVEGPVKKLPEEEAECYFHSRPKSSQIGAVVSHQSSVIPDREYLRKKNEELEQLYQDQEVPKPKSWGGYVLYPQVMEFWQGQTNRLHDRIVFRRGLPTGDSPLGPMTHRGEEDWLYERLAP
# Numbers after ± are the reported error.
# NR3C1: Glucocorticoid receptor (NR3C1, Homo sapiens, UniProt P04150)
SMILES,tested on,assay,test system,conditions,how to read,measurement,value
COc1cc(CC(=O)NCC(NC(=O)C(CCCNC(=O)c2cccc(I)c2)NC(=O)C(Cc2ccc(C(F)(F)P(=O)(O)O)cc2)NC(=O)c2ccc(C)c(Br)c2)C(N)=O)ccc1O (stereo not shown),"DUSP22 (Homo sapiens, UniProt Q9NRW4)",enzyme activity,,10 µM,,inhibition,no inhibition
C[C@]12CC[C@H]3c4ccc(O)cc4CC[C@@H]3[C@H]1CC[C@@H]2OC(=O)CCc1ccccc1,NR3C1,"nuclear translocation, agonist, enzyme fragment complementation",,,,EC50,> 9 µM
O=C(/C=C/c1nc2ccccc2[nH]1)c1c(-c2ccccc2)c2cc(Cl)ccc2[nH]c1=O,"Aurora kinase B (AURKB, Homo sapiens, UniProt Q96GD4)","kinase activity, inhibitor, SelectScreen profiling",,,,IC50,1.73 µM
CC(=O)[C@]1(O)CC[C@@H]2[C@H]3C[C@@H](C)C4=CC(=O)CC[C@@]4(C)[C@H]3[C@@H](O)C[C@]21C,NR3C1,"nuclear translocation, agonist, enzyme fragment complementation",,,,EC50,0.0236 µM
O=c1/c(=C/c2ccc(-c3ccccc3[N+](=O)[O-])o2)sc2nc3cc(Br)cnc3n12,"Dual specificity protein phosphatase 6 (Homo sapiens, UniProt Q16828)","phosphatase activity, inhibitor",,together with: OMFP,,IC50,57 µM
Cc1nc2ncnn2c(N(C)C)c1Cc1cccc(N)c1,"ENPP1 (Homo sapiens, UniProt P22413)","cGAMP hydrolysis, inhibitor, Lumit immunoassay",,together with: cGAMP,,IC50,0.108 µM
O=c1cc(O)n(Cc2ccco2)c(=S)[nH]1,"Protein lin-28 homolog A, with pre-let-7d (Mus musculus, UniProt Q8K3Y3)",HTS dose-response,,,,IC50,< 1 µM
O=C(Nc1cccnn1)N1CC(Oc2ccc(-c3ccccc3F)cn2)C1,,,healthy humans,"oral, 5 to 300 mg single, 50 to 500 mg repeated",,tolerability,not toxic
Fc1cccc(-n2cnc3c(NCc4nc5cc(Cl)ccc5[nH]4)nc(N4CCNCC4)nc32)c1,"MAST1 (Homo sapiens, UniProt Q9Y2H9)",KINOMEscan competition binding,,10 µM,baseline: control,remaining binding,6.2%
C=CC(=O)Nc1cc(-c2nn(C3CCC(N4CCN(C(C)=O)CC4)CC3)c3ncnc(N)c23)ccc1Oc1ccccc1 (stereo not shown),"ERBB3 (Homo sapiens, UniProt P21860)","ATP-site binding, LanthaScreen TR-FRET",,3 h,,IC50,0.023 µM
Cc1c(O)cc2c(c1C)O[C@](C)(CCCC(C)C)CC2,normal prostate epithelial cells,"cell viability, MTT",,24 h,,IC50,~40 µM
Cc1cc(C)c2nc3s/c(=C\c4ccc(-c5ccccc5C(=O)O)o4)c(=O)n3c2c1,"PTPN22 (Homo sapiens, UniProt Q9Y2R2)","phosphatase activity, inhibitor",,together with: OMFP,,IC50,30 µM
Cc1sc2c(c1C)C(c1ccc(Cl)cc1)=N[C@@H](CC(=O)OC(C)(C)C)c1nnc(C)n1-2,"LRRK2 (Homo sapiens, UniProt Q5S007)","kinase activity, Adapta",,,,IC50,> 10 µM
O=c1/c(=C/c2ccc(-c3cc(Cl)cc(Cl)c3)o2)sc2nc3cc(Br)cnc3n12,"PTPRR (Homo sapiens, UniProt Q15256)","phosphatase activity, inhibitor",,together with: OMFP,,IC50,~100 µM
Fc1cc(-c2ccc3c(n2)[nH]c2ccncc23)ccn1 [isotope labelled],"Microtubule-associated protein tau, paired helical filaments (MAPT, Homo sapiens, UniProt P10636)",radioligand binding,PHF tau brain homogenate,3.53 nM,higher = more binding,specific binding,3.73 a.u.
O=C(CCc1cn(-c2ccccc2)nc1-c1ccccc1)Oc1c(F)c(F)c(F)c(F)c1F,"PNPO (Homo sapiens, UniProt Q9NVS9)","enzyme activity, inhibitor",,,,IC50,~5 µM
CCCCCCCCCCCCCC=C[C@@H](O)[C@H](CO[C@@H]1O[C@H](CO)[C@@H](O[C@@H]2O[C@H](CO)[C@H](O)[C@H](O[C@]3(C(=O)O)C[C@H](O)[C@@H](NC(C)=O)[C@H]([C@H](O)[C@@H](CO)O[C@]4(C(=O)O)C[C@H](O)[C@@H](NC(C)=O)[C@H]([C@H](O)[C@H](O)CO)O4)O3)[C@H]2O)[C@H](O)[C@H]1O)NC(=O)CCCCCCCCCCCCCCCCC,"Cd1d1 (Mus musculus, UniProt P11609)",binding,,,,IC50,0.095 µM
CN1C/C(=C\c2ccccn2)C(=O)[C@@H](Cc2ccccn2)C1,"KDR (Homo sapiens, UniProt P35968)","enzyme activity, inhibitor, Z'-LYTE",,,,IC50,> 100 µM
CCCc1nc2sc3c(NCCc4ccc(OC)c(OC)c4)ncnc3c2c2c1CCC2,"USP28 (Homo sapiens, UniProt Q96RU2)",,,together with: ubiquitin-rhodamine,,IC50,0.12 µM
O=c1/c(=C/c2ccccc2Cl)sc2nc3cc(Br)cnc3n12,"DUSP3 (Homo sapiens, UniProt P51452)","phosphatase activity, inhibitor",,together with: OMFP,,IC50,> 100 µM
CCN1CCN(Cc2ccc(NC(=O)c3ccc(C)c(Oc4ncnc5cc(OC)c(OC)cc45)c3)cc2C(F)(F)F)CC1,"FLT3 (Homo sapiens, UniProt P36888)","enzyme activity, Z'-LYTE",,together with: ATP at Km,,IC50,0.633 µM
CC[C@@H]1C(=O)N(C)c2cnc(Nc3ccc(C(=O)NC4CCN(C)CC4)cc3OC)nc2N1C1CCCC1,"BAZ1B (Homo sapiens, UniProt Q9UIG0)",,,10 µM,,delta Tm,0.03 ± 0.15 °C
COc1cc(N2CCN(C)CC2)ccc1Nc1ncc2c(n1)N(C)c1ccccc1C(=O)N2C(C)C,"TNK2 (Homo sapiens, UniProt Q07912)","binding, inhibitor, LanthaScreen binding",,,,IC50,8.8 µM
Cc1cccc(C2Nc3cccc4cccc(c34)N2)c1,"Prothrombin (F2, Bos taurus, UniProt P00735)",enzyme activity,,"30 min preincubation, together with: pyroGlu-Pro-Arg-pNA",,IC50,> 20 µM
CN(C)S(=O)(=O)c1cccc(-n2sc3ccccc3c2=O)c1,"Phosphoethanolamine/phosphocholine phosphatase (Homo sapiens, UniProt Q8TCT1)","enzyme activity, inhibitor, phosphate release",,"60 min, pH 6.7, together with: phosphocholine 62.5 µM",,IC50,0.24 ± 0.06 µM
